Measurements pooled from the literature.
Each line is one published result; not all experiments were run side by side. ± gives the spread as reported.
BCHE: Cholinesterase (BCHE, Equus caballus, UniProt P81908)
Chain of UniProt P81908 (whole entry, looked up): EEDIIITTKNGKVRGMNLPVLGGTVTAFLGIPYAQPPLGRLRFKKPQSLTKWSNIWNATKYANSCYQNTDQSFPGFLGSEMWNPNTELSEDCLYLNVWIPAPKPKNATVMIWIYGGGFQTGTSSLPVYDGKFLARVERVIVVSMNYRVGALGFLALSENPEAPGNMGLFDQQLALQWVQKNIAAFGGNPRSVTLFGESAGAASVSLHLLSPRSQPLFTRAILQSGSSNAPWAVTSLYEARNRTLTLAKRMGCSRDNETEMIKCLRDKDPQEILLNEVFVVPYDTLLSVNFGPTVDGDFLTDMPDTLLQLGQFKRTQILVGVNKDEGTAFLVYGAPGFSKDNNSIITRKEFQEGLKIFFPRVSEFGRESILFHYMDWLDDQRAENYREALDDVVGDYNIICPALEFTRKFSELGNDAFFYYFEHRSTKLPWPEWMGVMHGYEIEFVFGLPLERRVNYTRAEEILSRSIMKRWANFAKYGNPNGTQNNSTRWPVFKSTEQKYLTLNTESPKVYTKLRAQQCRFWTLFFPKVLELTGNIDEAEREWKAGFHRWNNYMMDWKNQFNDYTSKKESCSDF
Chain of UniProt P08659 (whole entry, unmodified, looked up): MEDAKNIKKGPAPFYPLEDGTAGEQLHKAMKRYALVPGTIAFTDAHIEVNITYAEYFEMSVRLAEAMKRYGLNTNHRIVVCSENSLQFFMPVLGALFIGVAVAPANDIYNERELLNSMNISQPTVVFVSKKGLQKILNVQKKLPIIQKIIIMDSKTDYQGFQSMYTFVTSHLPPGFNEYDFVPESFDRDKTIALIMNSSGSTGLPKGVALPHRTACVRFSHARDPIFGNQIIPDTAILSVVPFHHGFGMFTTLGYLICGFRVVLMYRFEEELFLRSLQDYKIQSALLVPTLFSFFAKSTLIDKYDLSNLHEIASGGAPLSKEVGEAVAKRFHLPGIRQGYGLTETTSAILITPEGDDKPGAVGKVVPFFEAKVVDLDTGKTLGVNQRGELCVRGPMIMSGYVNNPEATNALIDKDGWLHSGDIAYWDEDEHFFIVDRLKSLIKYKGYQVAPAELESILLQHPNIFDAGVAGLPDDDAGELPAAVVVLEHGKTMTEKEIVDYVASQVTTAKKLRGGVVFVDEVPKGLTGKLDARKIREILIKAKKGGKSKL
Chain of UniProt Q16678 (whole entry, looked up): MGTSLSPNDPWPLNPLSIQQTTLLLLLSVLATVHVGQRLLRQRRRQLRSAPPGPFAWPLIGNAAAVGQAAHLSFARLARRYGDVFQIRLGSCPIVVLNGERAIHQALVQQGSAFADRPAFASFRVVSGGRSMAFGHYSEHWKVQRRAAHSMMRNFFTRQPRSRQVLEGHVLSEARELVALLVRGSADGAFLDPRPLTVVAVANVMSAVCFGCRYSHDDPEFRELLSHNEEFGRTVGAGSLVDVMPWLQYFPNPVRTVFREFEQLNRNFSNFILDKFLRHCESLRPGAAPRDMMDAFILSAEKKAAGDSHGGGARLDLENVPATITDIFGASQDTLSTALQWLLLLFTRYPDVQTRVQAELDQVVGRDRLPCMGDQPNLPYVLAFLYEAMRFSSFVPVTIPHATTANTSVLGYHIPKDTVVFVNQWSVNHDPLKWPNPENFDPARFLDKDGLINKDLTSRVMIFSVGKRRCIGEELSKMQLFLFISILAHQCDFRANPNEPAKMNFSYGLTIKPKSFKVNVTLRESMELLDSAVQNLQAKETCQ
Chain of UniProt Q9Y6L6 (whole entry, looked up): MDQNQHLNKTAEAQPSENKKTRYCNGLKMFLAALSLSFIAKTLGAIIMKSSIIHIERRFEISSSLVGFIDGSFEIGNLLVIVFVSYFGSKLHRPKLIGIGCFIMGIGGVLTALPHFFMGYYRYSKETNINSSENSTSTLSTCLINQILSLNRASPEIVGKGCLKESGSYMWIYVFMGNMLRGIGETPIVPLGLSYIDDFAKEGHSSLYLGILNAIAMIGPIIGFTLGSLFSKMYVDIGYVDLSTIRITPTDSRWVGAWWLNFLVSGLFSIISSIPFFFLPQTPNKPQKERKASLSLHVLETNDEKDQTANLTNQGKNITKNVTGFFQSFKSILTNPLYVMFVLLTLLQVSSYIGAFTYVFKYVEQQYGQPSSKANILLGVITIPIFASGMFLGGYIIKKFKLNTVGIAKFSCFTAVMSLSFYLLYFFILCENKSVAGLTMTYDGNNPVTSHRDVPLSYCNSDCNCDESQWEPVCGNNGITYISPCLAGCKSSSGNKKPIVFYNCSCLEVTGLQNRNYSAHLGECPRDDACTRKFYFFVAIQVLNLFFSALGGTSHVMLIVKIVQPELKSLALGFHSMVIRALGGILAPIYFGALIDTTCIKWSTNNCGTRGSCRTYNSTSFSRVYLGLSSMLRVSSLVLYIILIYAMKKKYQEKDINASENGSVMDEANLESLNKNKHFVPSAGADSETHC
Chain of UniProt Q04609 (whole entry, looked up): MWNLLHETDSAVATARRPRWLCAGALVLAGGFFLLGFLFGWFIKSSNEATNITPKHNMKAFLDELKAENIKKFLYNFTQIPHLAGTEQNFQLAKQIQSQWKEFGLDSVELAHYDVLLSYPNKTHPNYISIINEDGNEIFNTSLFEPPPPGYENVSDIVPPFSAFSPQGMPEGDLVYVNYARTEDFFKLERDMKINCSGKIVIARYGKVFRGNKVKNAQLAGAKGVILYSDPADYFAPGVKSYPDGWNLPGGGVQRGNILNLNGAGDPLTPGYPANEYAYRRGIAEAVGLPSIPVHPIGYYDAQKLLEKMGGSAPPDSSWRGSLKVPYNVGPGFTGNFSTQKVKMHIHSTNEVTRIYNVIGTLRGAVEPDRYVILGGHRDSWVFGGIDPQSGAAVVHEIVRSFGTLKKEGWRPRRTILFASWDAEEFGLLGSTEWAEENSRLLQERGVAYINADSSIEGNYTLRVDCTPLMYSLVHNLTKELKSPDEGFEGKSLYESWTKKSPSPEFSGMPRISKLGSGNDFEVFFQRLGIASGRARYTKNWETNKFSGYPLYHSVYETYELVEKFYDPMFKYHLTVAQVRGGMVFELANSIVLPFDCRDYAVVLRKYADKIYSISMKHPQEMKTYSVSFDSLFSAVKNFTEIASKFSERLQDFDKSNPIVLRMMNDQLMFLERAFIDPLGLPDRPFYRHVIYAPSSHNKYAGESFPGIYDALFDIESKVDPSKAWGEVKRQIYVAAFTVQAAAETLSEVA
Chain of UniProt P19784 (whole entry, looked up): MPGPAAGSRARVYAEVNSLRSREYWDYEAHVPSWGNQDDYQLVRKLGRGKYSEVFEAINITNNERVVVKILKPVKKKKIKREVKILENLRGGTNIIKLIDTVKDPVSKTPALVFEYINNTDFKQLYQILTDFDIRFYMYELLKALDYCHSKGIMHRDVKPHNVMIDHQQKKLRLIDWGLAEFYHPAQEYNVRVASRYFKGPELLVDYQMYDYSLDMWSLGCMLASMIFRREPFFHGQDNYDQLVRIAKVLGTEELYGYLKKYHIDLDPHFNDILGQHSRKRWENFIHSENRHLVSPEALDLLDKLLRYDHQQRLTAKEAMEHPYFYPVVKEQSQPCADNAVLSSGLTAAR
Chain of UniProt Q13547 (whole entry, looked up): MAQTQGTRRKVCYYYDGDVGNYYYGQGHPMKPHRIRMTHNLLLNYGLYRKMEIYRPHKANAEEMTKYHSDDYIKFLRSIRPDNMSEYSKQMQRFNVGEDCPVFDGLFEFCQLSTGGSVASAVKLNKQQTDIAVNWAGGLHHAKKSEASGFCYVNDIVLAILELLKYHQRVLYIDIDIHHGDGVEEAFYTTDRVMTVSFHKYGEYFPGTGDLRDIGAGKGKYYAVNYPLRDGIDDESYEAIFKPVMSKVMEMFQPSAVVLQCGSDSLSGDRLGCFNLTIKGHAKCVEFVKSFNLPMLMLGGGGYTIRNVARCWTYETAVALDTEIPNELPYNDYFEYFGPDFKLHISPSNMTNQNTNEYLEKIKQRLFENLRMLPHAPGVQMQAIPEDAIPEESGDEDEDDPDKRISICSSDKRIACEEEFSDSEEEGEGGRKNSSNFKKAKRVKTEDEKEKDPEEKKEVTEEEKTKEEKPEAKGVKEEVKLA
Chain of UniProt P04637 (whole entry, unmodified, looked up): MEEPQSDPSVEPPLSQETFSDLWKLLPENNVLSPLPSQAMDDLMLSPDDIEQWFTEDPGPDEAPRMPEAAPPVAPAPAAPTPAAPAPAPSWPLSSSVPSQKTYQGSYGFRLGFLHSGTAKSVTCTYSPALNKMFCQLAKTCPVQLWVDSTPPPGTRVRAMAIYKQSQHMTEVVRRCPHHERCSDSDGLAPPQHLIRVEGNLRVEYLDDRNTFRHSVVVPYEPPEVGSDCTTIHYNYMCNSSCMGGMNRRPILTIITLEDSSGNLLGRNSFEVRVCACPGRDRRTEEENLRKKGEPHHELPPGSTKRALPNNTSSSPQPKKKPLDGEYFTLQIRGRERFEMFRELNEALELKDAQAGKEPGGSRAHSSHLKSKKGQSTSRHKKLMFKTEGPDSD

The IC50 of `[O-][n+]1c(CCl)nc2cccc3c2c1-c1ccccc1-3` is reported as 6100 nM (TP53/Luciferin 4-monooxygenase (Homo sapiens, UniProt P04637+P08659, D436G/I423L/L530R); p53 DNA binding, inhibitor, luciferase complementation).
With `CSCC[C@H](NC(=O)[C@H](C)N)C(=O)N[C@@H](CCCNC(=N)N)C(=O)N[C@@H](CCC(N)=O)C(=O)N[C@H](C(=O)N[C@@H](Cc1c[nH]cn1)C(=O)N[C@@H](CC(N)=O)C(=O)N[C@@H](Cc1ccccc1)C(=O)N[C@@H](Cc1ccccc1)C(=O)N[C@@H](Cc1ccccc1)C(=O)N[C@@H](CC(N)=O)C(=O)N[C@@H](Cc1ccccc1)C(=O)N[C@@H](Cc1ccccc1)C(=O)N[C@@H](CCCCN)C(=O)N[C@@H](CCCNC(=N)N)C(=O)N[C@@H](CCCNC(=N)N)C(=O)O)[C@@H](C)O` the IC50 was over 10000 nM (histidine kinase ComD (Streptococcus pneumoniae serotype 4, UniProt A0A0H2US84); reporter gene, antagonist; Streptococcus pneumoniae, TIGR4 comX::lacZ; 30 min, 37 °C, together with: CSP2 250 nM).
With `CCC(=O)Nc1cc(Nc2cc(NC3CC3)n3ncc(C#N)c3n2)ccc1N1CCCC(N)C1` (centres unmarked) the IC50 was 15.8 nM (Casein kinase II subunit alpha' (CSNK2A2, Homo sapiens, UniProt P19784); target engagement in cells, BRET).
With `O=C(O)c1ccccc1-c1c2ccc(=O)c([As]3SCCS3)c-2oc2c([As]3SCCS3)c(O)ccc12` the IC50 was 30 nM (Tyrosine-protein phosphatase non-receptor type 11 (PTPN11, Homo sapiens, UniProt Q06124, V368C); enzyme activity, inhibitor; catalytic domain; 120 min preincubation, together with: pNPP).
With `COc1ccc(NC(=O)N2CCCCN3[C@H](CO)[C@H](c4ccc(C#Cc5ccccc5)cc4)[C@@H]3C2)cc1` the IC50 was 33 nM (Phenylalanine--tRNA ligase alpha subunit (Plasmodium falciparum, UniProt Q8I246); aminoacylation activity, inhibitor).
`CN[C@H]1C(=O)N[C@@H]2Cc3ccc(cc3)Oc3cc4cc(c3O[C@@H]3O[C@H](C(=O)O)[C@@H](O)[C@H](O)[C@H]3NC(=O)CCCCCCCCC(C)C)Oc3ccc(cc3Cl)[C@@H](O)[C@@H]3NC(=O)[C@H](NC(=O)[C@@H]4NC(=O)[C@@H](NC2=O)c2cc(cc(O)c2Cl)Oc2cc1ccc2O)c1ccc(O)c(c1)-c1c(O[C@H]2O[C@H](CO)[C@@H](O)[C@H](O)[C@@H]2O)cc(O)cc1[C@@H](C(=O)NCCCN(C)C)NC3=O` has an IC50 of 6250 to 12500 nM (CRISPR-associated endonuclease Cas9/Csn1 (cas9, Streptococcus pyogenes serotype M1, UniProt Q99ZW2); genome editing, inhibitor, PCR genotyping; Escherichia coli, MG1655; Streptococcus pyogenes Cas9).
For `Cc1ccc(Oc2cccc(CC(=O)N3CCNc4nc(C(F)(F)F)ccc4[C@H]3CC(=O)O)c2)cn1`, the IC50 was 495 ± 1 nM (Bombesin receptor subtype-3 (BRS3, Homo sapiens, UniProt P32247); radioligand binding; BALB 3T3 fibroblasts, transfected; 60 min, 21 °C, together with: 50 pM iodinated bombesin analogue).
With `CC(C)CN(C[C@@H](O)[C@H](Cc1ccccc1)NC(=O)O[C@H]1CO[C@H]2OCC[C@H]21)S(=O)(=O)c1ccc(N)cc1` the IC50 was 82500 ± 21000 nM (Solute carrier organic anion transporter family member 1B1 (SLCO1B1, Homo sapiens, UniProt Q9Y6L6); transport, inhibitor; 10 (unit not given), pre-incubation, together with: estrone-3-sulfate).
`Cc1ccc(OC(=O)NCCCCCn2ccc3ccc(F)cc32)cn1` has an IC50 of 360 nM (BCHE; enzyme activity, inhibitor, HPLC).
The IC50 of `CN1C(=O)[C@]23SS[C@@]1(C)C(=O)N2[C@H]1Nc2ccccc2[C@@]1([C@@]12c4ccccc4N[C@@H]1N1C(=O)[C@@]4(C)SS[C@]1(C(=O)N4C)[C@H]2O)[C@@H]3O` is reported as 573 nM (Histone-lysine N-methyltransferase SUV39H1 (SUV39H1, Homo sapiens, UniProt O43463); enzyme activity, inhibitor, radiometric).
`CN[C@@](C)(C[18F])C(=O)O` gave a tissue uptake of 0.2 ± 0.03 %ID/g (SCID mouse SK-OV-3 xenograft, brain; 60 min, post injection).
`CC#Cc1ccc2ccc3cccc4ccc1c2c34` gave an IC50 of under 50 nM (Cytochrome P450 1B1 (CYP1B1, Homo sapiens, UniProt Q16678); enzyme activity, inhibitor; 5 s, pH 7.4).
Under IC50, `O=C(C[C@@H]1C/C=C/CCC(=O)O[C@H](c2ccccc2)CNC1=O)NCc1ccc(Cl)cc1` is recorded as “no inhibition” (Sonic hedgehog protein, N-terminal signaling domain (Homo sapiens, UniProt Q15465); inhibitor).
`N=C(N)NCc1ccc(C(=O)NCCCCC(NC(=O)NC(CCC(=O)O)C(=O)O)C(=O)O)cc1I` (centres unmarked) gave an IC50 of 2.24 nM (Glutamate carboxypeptidase 2 (FOLH1, Homo sapiens, UniProt Q04609); enzyme activity, inhibitor, fluorescence; lysate).
`CCCCNNC(=O)c1ccc(Br)cc1` gave an IC50 of 460 nM (Histone deacetylase 1 (HDAC1, Homo sapiens, UniProt Q13547); enzyme activity, inhibitor).
`COc1ccc(CCN2CCN(c3ccccc3OC)CC2)cc1OC` gave an IC50 of over 100000 nM (Cytochrome P450 2D6 (CYP2D6, Homo sapiens, UniProt P10635); enzyme activity, inhibitor; human, liver microsomes).
`CC1=C(C(=O)NC(=O)c2cnccn2)C(c2cccc([N+](=O)[O-])c2)NC(=S)N1` (centres unmarked) gave an IC50 of 5380 ± 10 nM (BCHE).
